{"data": "Results from different studies", "note": "Compare with care: the assays were run in different laboratories. “And” joins repeats or separate records; there may be more than shown. ± marks the error that the study gave."}
{"Structure (SMILES)": "COc1cnc2cccc(N3CCc4c(cc(Cn5ccnc5)cc4-c4cn(C)nc4C(F)(F)F)C3=O)c2c1", "test system": "BALB/c nude mice, MV4-11 xenograft", "conditions": "intraperitoneal, 100 mg/kg, day 31", "quantity": "body weight", "value": "21.7 g and 23.1 g and 22.2 g and 24.2 g and 23.2 g"}
{"Structure (SMILES)": "CC1(C)C(NC(=O)C(=NOC2(C(=O)O)CC2)c2csc(N)n2)C(=O)N1OS(=O)(=O)O (stereo not drawn)", "test system": "Kunming mouse", "conditions": "intravenous, 7-day observation", "quantity": "LD50", "value": "> 500 mg/kg"}
{"Structure (SMILES)": "CC(=O)N[C@H](C(=O)N[C@@H](CCCC(=O)OC(C)(C)C)C(=O)N[C@@H](CCC1CCCCC1)C(=O)N[C@@H](CC(=O)O)C(=O)COC(=O)c1c(C)cccc1C)C(C)(C)C", "test system": "C57BL/6N mouse, female, whole blood", "conditions": "intraperitoneal, dose not given, 1 h", "quantity": "blood concentration", "value": "740 µM and 570 µM"}
{"Structure (SMILES)": "CCCCCCCCCCCCCCCC(=O)N[C@@H](CCC(=O)NCCOCCOCCC(=O)NCCOCCOCCC(=O)NCCCC[C@H](NC(=O)[C@H](CC(=O)O)NC(=O)[C@H](CC(C)C)NC(=O)[C@H](Cc1ccc(O)cc1)NC(=O)[C@H](CCCCN)NC(=O)[C@H](CO)NC(=O)[C@H](Cc1ccc(O)cc1)NC(=O)[C@H](CC(=O)O)NC(=O)[C@H](CO)NC(=O)[C@@H](NC(=O)[C@H](Cc1ccccc1)NC(=O)[C@@H](NC(=O)CNC(=O)[C@H](CCC(N)=O)NC(=O)[C@@H](CO)NC(=O)[C@@H](N)Cc1c[nH]cn1)[C@@H](C)O)[C@@H](C)O)C(=O)N[C@@H](CCCNC(=N)N)C(=O)N[C@@H](CCCNC(=N)N)C(=O)N[C@@H](C)C(=O)N[C@@H](CCC(N)=O)C(=O)N[C@@H](CC(=O)O)C(=O)N[C@@H](Cc1ccccc1)C(=O)N[C@H](C(=O)N[C@@H](CCC(N)=O)C(=O)N[C@@H](Cc1c[nH]c2ccccc12)C(=O)N[C@@H](CC(C)C)C(=O)N[C@@H](CC(C)C)C(=O)N[C@@H](CC(N)=O)C(=O)N[C@H](C(=O)NCC(=O)NCC(=O)N1CCC[C@H]1C(=O)N[C@@H](CO)C(=O)N[C@@H](CO)C(=O)NCC(=O)N[C@@H](C)C(=O)N1CCC[C@H]1C(=O)N1CCC[C@H]1C(=O)N1CCC[C@H]1C(=O)N[C@@H](CO)C(N)=O)[C@@H](C)O)C(C)C)C(=O)O", "test system": "rhesus monkey, male", "conditions": "subcutaneous, 20 µg/kg once daily, 28 days", "quantity": "creatinine", "value": "49.4 ± 4 µmol/L"}
{"Structure (SMILES)": "C[C@H](O)[C@@H](NC(=O)[C@H]1CCCN1C(=O)[C@@H](CCCCN)NC(=O)[C@@H](CO)NC(=O)[C@@H](Cc1ccc(O)cc1)NC(=O)[C@@H](CC(N)=O)NC(=O)CCOCCOCCOCCNC(=O)CN1CCN(CC(=O)O)CCN(CC(=O)O)CCN(CC(=O)O)CC1)C(=O)N[C@H](CC(=O)O)C(=O)N[C@H](CCCNC(=N)N)C(=O)N[C@H](CCC(N)=O)C(=O)N[C@H](Cc1ccc(O)cc1)C(=O)N[C@H](Cc1c[nH]cn1)C(=O)N[C@H](Cc1ccccc1)C(N)=O [gallium-68 labelled]", "test system": "BALB/c nude mice U-87 MG tumour, kidney", "conditions": "intravenous, 1.85 MBq, 1 h, radiolabelled", "quantity": "tissue uptake", "value": "11.5 ± 0.44 %ID/g"}
{"Structure (SMILES)": "CC(=O)Oc1ccc(NC(=O)CCc2ccccc2)c(C(=O)O)c1", "assay": "cytotoxicity, CellTiter-Glo", "test system": "primary brown adipocytes, mouse C57BL/6", "conditions": "48 h", "quantity": "CC50", "value": "> 122 µM"}
{"Structure (SMILES)": "N=C(N)NCCC[C@@H](NC(=O)[C@H](N)Cc1c[nH]c2ccccc12)C(=O)N[C@H](CCCCN)C(=O)N[C@H](Cc1c[nH]c2ccccc12)C(=O)N[C@H](CCCNC(=N)N)C(=O)N[C@H](CCCCN)C(=O)N[C@H](Cc1c[nH]c2ccccc12)C(=O)N[C@H](CCCNC(=N)N)C(=O)N[C@H](CCCCN)C(=O)N[C@H](Cc1c[nH]c2ccccc12)C(=O)N[C@H](CCCNC(=N)N)C(=O)N[C@H](CCCCN)C(N)=O", "test system": "mouse, urine", "conditions": "20 mg/kg", "quantity": "Kim-1 level", "value": "51 ng/mL"}
{"Structure (SMILES)": "O=C(O)CC[C@H](NC(=O)[C@H](CCC(=O)O)NC(=O)[C@H](CCC(=O)O)NC(=O)[C@H](CCC(=O)O)NC(=O)[C@H](CCC(=O)O)NC(=O)CNC(=O)[C@H](CCC(=O)O)NC(=O)CNC(=O)[C@H](CCC(=O)O)NC(=O)[C@@H](Cc1ccccc1)NC(=O)[C@@H](Cc1ccccc1)NC(=O)Cc1ccc2ccccc2c1)C(=O)O", "assay": "circular dichroism", "test system": "PBS", "conditions": "500 µM, pH 9, above CMC", "quantity": "first negative CD peak wavelength", "value": "202 nm"}
{"Structure (SMILES)": "CC(C)[C@@H]1NC(=O)CNC(=O)[C@H](CC(N)=O)NC(=O)[C@H](CCCNC(=N)N)NC(=O)[C@H](Cc2ccc(O)cc2)NC(=O)[C@H](C(C)C)NC(=O)[C@@H](NC(=O)[C@@H](NC(=O)[C@H](CC(N)=O)NC(=O)[C@H](Cc2c[nH]c3ccccc23)NC(=O)[C@H](C)NC(=O)[C@H](Cc2ccccc2)NC(=O)CNC(=O)[C@H](CCCCN)NC(=O)[C@H](Cc2ccccc2)NC(=O)[C@H](Cc2ccccc2)NC(=O)[C@H](CCCCN)NC(=O)OCC2c3ccccc3-c3ccccc32)C(C)C)CSSC[C@@H](C(=O)N[C@@H](Cc2c[nH]cn2)C(=O)N[C@@H](CCCNC(=N)N)C(=O)N[C@@H](CCCNC(=N)N)C(=O)N[C@@H](C)C(=O)N[C@@H](CC(N)=O)C(N)=O)NC(=O)[C@H](C(C)C)NC(=O)[C@H](CCCNC(=N)N)NC1=O", "test system": "ICR mouse", "conditions": "ip, 5 mg/kg", "scale": "direction not given", "quantity": "tremor score", "value": 0}
{"Structure (SMILES)": "C#Cc1c(F)ccc2cc(O)cc(-c3ncc4c(N5CC6CCC(C5)N6C(=O)OC(C)OC(=O)[C@@H](N)C(C)C)nc(OC[C@@]56CCCN5C[C@H](F)C6)nc4c3F)c12 (stereo partly drawn)", "assay": "chemical stability", "test system": "simulated intestinal fluid", "conditions": "1 µM, 30 min", "quantity": "compound remaining", "value": "93%"}
{"Structure (SMILES)": "Cc1ccccc1-c1ccc(-c2nc(-c3ccc(CN(C)CCCC(=O)O)c([18F])c3)no2)cc1C(F)(F)F", "test system": "rat, brain", "conditions": "1 h", "quantity": "tracer uptake", "value": "0.27 %ID/g"}
{"Structure (SMILES)": "O=C1NC2(CC2)COc2ncc(F)cc2[C@H]2COCCN2c2ccn3ncc1c3n2", "test system": "Sprague-Dawley rats, female, blood", "conditions": "oral, 5 mg/kg/day, end of treatment, 4-week subacute toxicity", "quantity": "haematocrit", "value": "40.8 ± 4.5%"}
{"Structure (SMILES)": "CC[C@H](C)[C@H](NC(=O)[C@H](CCCN)NC(=O)[C@H](CCCNC(=N)N)NC(=O)[C@@H]1CCCN1C(=O)[C@@H]1CCCN1C(=O)[C@H](CCCNC(=N)N)NC(=O)[C@@H]1CCCN1C(=O)[C@H](CCCNC(=N)N)NC(=O)[C@@H]1CCCN1C(=O)[C@H](CC(C)C)NC(=O)[C@H](Cc1ccc(O)cc1)NC(=O)[C@@H]1CCCN1C(=O)[C@@H]1CCCN1C(=O)[C@H](CCCCN)NC(=O)[C@H](CC(=O)O)NC(=O)[C@@H](N)C(C)C)C(=O)N[C@@H](Cc1ccc(O)cc1)C(=O)N[C@@H](CC(N)=O)C(=O)N[C@@H](CCCN)C(N)=O", "assay": "competitive ELISA", "test system": "mouse CD-1, female, plasma", "conditions": "subcutaneous, 4.34 µmol/kg", "quantity": "volume of distribution", "value": "47.3 mL"}
{"Structure (SMILES)": "CC1COC2=C1C(=O)C(=O)c1c2ccc2c1C(OC(=O)CNC(=O)C(N)CO)CCC2(C)C (mixture of isomers)", "test system": "saline", "conditions": "24 h, 25 °C", "quantity": "equilibrium solubility", "value": "370 µg/mL"}
{"Structure (SMILES)": "CC(C)N1CCCCC1C(=O)NC(Cc1ccc(-c2ccccc2)cc1)B(O)O (stereo not drawn)", "test system": "rat, plasma", "conditions": "intravenous, 1 mg/kg", "quantity": "Vd", "value": "2.3 L/kg"}
{"Structure (SMILES)": "CCCC/C=C/C(=O)N[C@@H](Cc1csc2ccccc12)C(=O)N[C@H]1COC(=O)[C@@H]2C[C@@H](C)CN2C(=O)[C@H](C)NC(=O)[C@@H]2CCCCN2C(=O)[C@@H]2CCCN2C1=O", "assay": "LDH release", "test system": "human ESC-derived lung organoids", "conditions": "concentration not given, 2 days", "quantity": "cytotoxicity", "value": "1.27% and 1.5% and 1.69%"}
{"Structure (SMILES)": "CC[C@H](C)[C@H](NC(=O)[C@H](CCCCN)NC(=O)CNC(=O)[C@H](CC(C)C)NC(=O)[C@H](Cc1ccccc1)NC(=O)[C@H](CCCCN)NC(=O)[C@H](CO)NC(=O)[C@H](Cc1ccccc1)NC(=O)[C@H](Cc1c[nH]c2ccccc12)NC(=O)[C@H](CCC(N)=O)NC(=O)[C@@H](NC(=O)[C@H](Cc1ccccc1)NC(=O)CCCCCNC(=O)CN1CCN(CC(=O)O)CCN(CC(=O)O)CCN(CC(=O)O)CC1)C(C)C)C(=O)N[C@@H](CCC(=O)O)C(=O)N1CCC[C@H]1C(=O)N[C@@H](CC(=O)O)C(=O)N[C@H](C(=O)N[C@@H](CO)C(=O)N[C@@H](CCC(N)=O)C(=O)N[C@H](C(=O)N[C@@H](CCC(N)=O)C(=O)N[C@@H](CC(=O)O)C(=O)N1CCC[C@H]1C(=O)N[C@@H](CC(N)=O)C(=O)N[C@@H](CC(=O)O)C(=O)N[C@@H](CCC(N)=O)C(=O)N[C@@H](Cc1ccc(O)cc1)C(=O)N[C@@H](CCC(=O)O)C(=O)N1CCC[C@H]1C(=O)N[C@@H](Cc1ccccc1)C(=O)O)C(C)C)C(C)C [copper-64 labelled]", "assay": "dynamic PET", "test system": "mouse, CT26 tumour, untreated, tumour", "conditions": "intravenous, 100 µCi/mouse, 70 s", "quantity": "SUVmean", "value": "0.67 SUV"}
{"Structure (SMILES)": "CSCC[C@H](N)C(=O)N[C@@H](C)C(=O)N[C@@H](CCCNC(=N)N)C(=O)N[C@@H](CCCNC(=N)N)C(=O)N[C@@H](CC(=O)O)C(=O)N[C@@H](CCCCN)C(=O)N[C@H](C(=O)N[C@@H](CC(=O)O)C(=O)N[C@@H](Cc1ccccc1)C(=O)N[C@@H](C)C(=O)N[C@@H](CCCNC(=N)N)C(=O)N[C@@H](CCCNC(=N)N)C(=O)N[C@@H](CCCNC(=N)N)C(=O)N[C@@H](CCCNC(=N)N)C(=O)NCCCCCC(=O)NCCCCC(NC(=O)CCCCCNC(=O)[C@H](CCCNC(=N)N)NC(=O)[C@H](CCCNC(=N)N)NC(=O)[C@H](CCCNC(=N)N)NC(=O)[C@H](CCCNC(=N)N)NC(=O)[C@H](C)NC(=O)[C@H](Cc1ccccc1)NC(=O)[C@H](CC(=O)O)NC(=O)[C@@H](NC(=O)[C@H](CCCCN)NC(=O)[C@H](CC(=O)O)NC(=O)[C@H](CCCNC(=N)N)NC(=O)[C@H](CCCNC(=N)N)NC(=O)[C@H](C)NC(=O)[C@@H](N)CCSC)[C@@H](C)O)C(=O)NCCCCC(NC(=O)C(CCCCNC(=O)CCCCCNC(=O)[C@H](CCCNC(=N)N)NC(=O)[C@H](CCCNC(=N)N)NC(=O)[C@H](CCCNC(=N)N)NC(=O)[C@H](CCCNC(=N)N)NC(=O)[C@H](C)NC(=O)[C@H](Cc1ccccc1)NC(=O)[C@H](CC(=O)O)NC(=O)[C@@H](NC(=O)[C@H](CCCCN)NC(=O)[C@H](CC(=O)O)NC(=O)[C@H](CCCNC(=N)N)NC(=O)[C@H](CCCNC(=N)N)NC(=O)[C@H](C)NC(=O)[C@@H](N)CCSC)[C@@H](C)O)NC(=O)CCCCCNC(=O)[C@H](CCCNC(=N)N)NC(=O)[C@H](CCCNC(=N)N)NC(=O)[C@H](CCCNC(=N)N)NC(=O)[C@H](CCCNC(=N)N)NC(=O)[C@H](C)NC(=O)[C@H](Cc1ccccc1)NC(=O)[C@H](CC(=O)O)NC(=O)[C@@H](NC(=O)[C@H](CCCCN)NC(=O)[C@H](CC(=O)O)NC(=O)[C@H](CCCNC(=N)N)NC(=O)[C@H](CCCNC(=N)N)NC(=O)[C@H](C)NC(=O)[C@@H](N)CCSC)[C@@H](C)O)C(N)=O)[C@@H](C)O (stereo partly drawn)", "test system": "C57BL/6 mouse female, thymus", "conditions": "dose not given, 3 h", "scale": "baseline: total", "quantity": "tissue distribution", "value": "0.73% and 0% and 0.61%"}
